# Measurements collected from several papers.
# Each numbered part is a random draw from the data of one study; scales do not carry over between parts. Positions count from the first letter of the parent shown.

# Set 1
# Target: Centromere-binding protein 1, full length, N-terminal tag (CBF1, Saccharomyces cerevisiae, UniProt P17106, residues 1-351)
# UniProt P17106, sequence (whole entry, looked up): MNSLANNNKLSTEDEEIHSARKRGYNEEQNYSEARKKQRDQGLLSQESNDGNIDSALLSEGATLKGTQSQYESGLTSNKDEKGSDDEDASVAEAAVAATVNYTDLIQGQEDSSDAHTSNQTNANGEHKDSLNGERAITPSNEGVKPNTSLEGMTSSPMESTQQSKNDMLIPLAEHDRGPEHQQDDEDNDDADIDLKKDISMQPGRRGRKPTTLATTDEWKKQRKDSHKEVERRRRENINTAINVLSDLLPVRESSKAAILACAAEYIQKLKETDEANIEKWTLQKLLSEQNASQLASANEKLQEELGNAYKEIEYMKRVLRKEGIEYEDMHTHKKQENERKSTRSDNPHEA
# Method: protein-binding microarray
# Form: double-stranded DNA, one strand shown
# Matrix: in vitro
# Tested at: 0.8 µM
# Setting: whole 60-bp probe, no competitor
# Reading: higher = stronger binding
# All sequences stand within: … GTCTTGATTCGCTTGACGCTGCTG
Strand,fluorescence intensity [a.u.]
CCTAACTACTATAAACCATCAGCATAGCTTCGTACA,520
GAAGAATTAATTAGTCTCACATGGCTGACATAATAG,898
CTAAAACTCACTTAGCACGCATTATTGCCGGAATTC,520
CCTAACTACTATATACACGTTTCATAGCTTCGTACA,588
CTAACCAAGCCAATCCATCTGATTGGTCATTTTTTC,530
CTAACCGCTTCTGCACACGTTTCTTAGATATGCTTC,541
CTATCGAGATCACTTTTCGTGATCCGCTAATCATTC,728
CTAAAAAAAAGGCACCACGTGACTAGAGAATCATTC,20000

# Set 2
# Substitution: S42F
# Target: ABI1, truncated, D143A, DHFR fusion (Arabidopsis thaliana)
# Method: DHFR PCA, deep sequencing
# Matrix: yeast
# Setting: methotrexate growth selection, single substitutions
# Baseline: wild-type fitted maximum
# Reading: higher = stronger binding
# Starting sequence: PYL1, truncated, DHFR fusion (Arabidopsis thaliana); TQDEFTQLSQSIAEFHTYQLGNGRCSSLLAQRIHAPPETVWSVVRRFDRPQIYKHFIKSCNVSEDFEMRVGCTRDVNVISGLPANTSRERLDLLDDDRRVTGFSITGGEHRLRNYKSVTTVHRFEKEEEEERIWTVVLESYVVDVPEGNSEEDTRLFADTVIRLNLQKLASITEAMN; partner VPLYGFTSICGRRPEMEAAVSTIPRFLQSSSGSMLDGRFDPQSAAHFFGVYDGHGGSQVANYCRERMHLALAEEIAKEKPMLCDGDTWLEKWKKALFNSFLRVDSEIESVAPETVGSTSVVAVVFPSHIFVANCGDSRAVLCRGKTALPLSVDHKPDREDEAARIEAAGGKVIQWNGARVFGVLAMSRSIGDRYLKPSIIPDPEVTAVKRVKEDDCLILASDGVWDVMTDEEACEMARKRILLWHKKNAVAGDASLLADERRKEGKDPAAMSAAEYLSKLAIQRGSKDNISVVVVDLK
setting,relative binding score [%]
together with: (+)-ABA 1.4 µM,-4.47
together with: (+)-ABA 17 µM,25.5
together with: (+)-ABA 2500 µM,94.6
together with: (+)-ABA 0.0091 µM,0.231
together with: (+)-ABA 0.032 µM,-1.31
together with: (+)-ABA 0.11 µM,-3.77

# Single results of other studies
# P1: PafA, mature enzyme, eGFP fusion (Elizabethkingia meningoseptica, UniProt Q9KJX5); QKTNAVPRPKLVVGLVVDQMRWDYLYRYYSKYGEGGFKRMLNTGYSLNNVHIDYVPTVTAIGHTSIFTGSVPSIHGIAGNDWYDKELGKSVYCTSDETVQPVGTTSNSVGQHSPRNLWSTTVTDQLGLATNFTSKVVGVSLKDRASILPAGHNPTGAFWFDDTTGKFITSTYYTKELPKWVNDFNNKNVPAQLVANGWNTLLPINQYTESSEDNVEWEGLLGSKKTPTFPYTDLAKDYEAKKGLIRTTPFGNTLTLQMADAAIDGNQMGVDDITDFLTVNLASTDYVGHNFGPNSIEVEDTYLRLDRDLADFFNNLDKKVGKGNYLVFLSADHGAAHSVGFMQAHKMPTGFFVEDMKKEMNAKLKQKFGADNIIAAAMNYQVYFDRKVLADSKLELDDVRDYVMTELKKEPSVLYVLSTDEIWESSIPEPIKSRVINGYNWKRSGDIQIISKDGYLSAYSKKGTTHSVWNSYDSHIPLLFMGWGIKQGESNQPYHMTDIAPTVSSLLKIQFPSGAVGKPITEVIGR
Substance,target,test,test system,setting,how to read,endpoint,value
P1 F341G,"tungstate, free oxyanion",microfluidic competitive inhibition,"in vitro, cell-free expressed","not given, derived from inhibition constants, unchanged parent 2230 nM",lower = stronger binding,oxyanion analog dissociation constant,933 nM
"PhoQ, residues 284 288 289 292 302 303 SACGEM","PhoP, residues 12 14 15 18 19 TTLRV (Escherichia coli, UniProt P23836)","Sort-seq, measured: YFP reporter",E. coli,"PhoQ-PhoP variant library, together with: 10 µM Mg2+","baseline: high Mg2+ state, higher = stronger signaling",fold induction,6.96

# For quick reference, copied from above (set 1):
Strand,fluorescence intensity [a.u.]
CTATCGAGATCACTTTTCGTGATCCGCTAATCATTC,728
